Assay results collected from several papers.
Every numbered part comes from another study and shows a few of its results, in no order.

Series 1
Target: Histone acetyltransferase KAT6A, both winged helices, GST fusion (KAT6A, Homo sapiens, UniProt Q92794, residues 1-181)
Technique: protein binding microarray
Form: double-stranded DNA, one strand shown
Matrix: in vitro
Tested at: not given
Notes: 8-mer, flanks averaged, mean of 2 arrays, mostly near background
Reference: not given
Reading: higher = stronger binding
Construct (chain): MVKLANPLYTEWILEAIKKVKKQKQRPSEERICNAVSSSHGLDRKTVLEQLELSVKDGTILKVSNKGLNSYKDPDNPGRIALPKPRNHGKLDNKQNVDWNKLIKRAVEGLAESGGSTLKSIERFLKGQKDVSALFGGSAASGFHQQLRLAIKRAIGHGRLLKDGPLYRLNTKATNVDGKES
| Sequence | E-score |
| --- | --- |
| ACGAAATG | -0.203 |
| GAGCGAGC | 0.00238 |
| CTGACCTA | -0.211 |
| GAATGCTA | -0.0118 |
| CAACGGCA | 0.201 |
| CAAATATG | -0.0265 |
| AGTTGTGA | -0.0939 |
| ATCCCCTG | -0.259 |
| CGTGACTA | 0.064 |
| CACGGTGC | 0.0578 |
| ATCACGAT | -0.091 |
| CTGACGAC | -0.0707 |
| CGCAGTAG | 0.122 |
| ATGCATAA | -0.0958 |
| CGTTGAAG | -0.0086 |
| GCATGTAA | 0.0537 |
| ACTCGAAC | -0.0808 |
| CATATCGG | 0.0419 |
| ACGCTCCA | 0.0311 |
| CATACTAA | -0.0926 |
| CAAGCTGC | -0.0521 |
| GGACTCAC | -0.0342 |
| CTCTAAAG | -0.195 |
| ATGTGGCC | -0.0835 |
| CTACCACA | -0.206 |

Series 2
Target: RNA binding protein fox-1 homolog 2, RRM domain, GST-SBP tag (RBFOX2, Homo sapiens, UniProt O43251-10, residues 100-194)
Technique: RNA Bind-n-Seq
Form: RNA
Matrix: in vitro
Tested at: 365 nM
Notes: natural RNA segment, single round, ends assumed
Reference: no-protein control
Reading: higher = stronger binding
Construct (chain): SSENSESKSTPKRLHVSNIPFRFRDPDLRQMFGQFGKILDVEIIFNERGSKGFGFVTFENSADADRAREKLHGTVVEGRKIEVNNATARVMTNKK
| Sequence | RBNS enrichment (R) |
| --- | --- |
| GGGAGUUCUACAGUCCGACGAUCAGGGUCAUUGUCCCCACAAUGUGCCAGUCGACUAUUUGCACUUACCUUGUCCUAUAUAUCCGUACGGAGGUGUGCAAUUCCUCGUGUCAGUAGCCUUGUGACACUGAACCUGGAAUUCUCGGGUGCCAA | 0.314 |
| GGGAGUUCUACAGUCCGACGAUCUUCCCUGAUGUCACACCCCACUUCCCGUCUCCCUGCACCCUGGGGCUUGAGACUGGUGUCUGUUUCAUCGUCCCAGGACACGGCAAAUGAAGUCAGAACAGAAGGAGGACUGGAAUUCUCGGGUGCCAA | 0.326 |
| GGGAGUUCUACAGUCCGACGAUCUCAUUUUGAAACUUAAUGUACUACUUACUGGUACUCUCCCUAUUAAUAUUUGAAGGACCUCAAUGGAAUAAAUUUGAAAAGCUAAAUUAAAAUACAAAAAUUUAAAUCUGUGGAAUUCUCGGGUGCCAA | 0.641 |
| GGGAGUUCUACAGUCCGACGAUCUAAUAAAUUUUUCUGAAGUCUCAAAGUCUUCUCAACAGUCAAGAAACCAAGCAAGCAAGCAAGAGCAUCCAGUUGUGAUUAGGGUUAAAAUCAUCCAUCCUAAUUAAUGAUGGAAUUCUCGGGUGCCAA | 0.584 |
| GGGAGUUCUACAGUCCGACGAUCAGAAAUGCUUUCAGUUACCAAAGUUAUAACGAUAUAUUUAGGAAAAGCUACAAAUAACACUUACUUUGAAUCCUGCUGUCAAAUGUCUGCAUCAAGAUAGCACCCCUUUGUGGAAUUCUCGGGUGCCAA | 1.06 |
| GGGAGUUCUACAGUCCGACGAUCUACUAUUAGGUAUGUAAGCUUGGGCAAAUCGCUUAACCUUCAGGUCUAGCUUUCUCACAGAAUGAGGACACUGGACUAAAUGAUUGCCCAGUUUCCAGCUAGUCCUAGAGUGGAAUUCUCGGGUGCCAA | 0.356 |
| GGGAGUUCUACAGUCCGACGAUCUUUUGAGAAUUUUUUUGCCCGUCCCUUUGGUUUCAAAAGUUUCACGUCUUGGUGCCUUUUGUGUGACACGCCUUGCCGAUGGCUUGACAUGCGCAGAUGUGAGGGACACGUGGAAUUCUCGGGUGCCAA | 5.5 |
| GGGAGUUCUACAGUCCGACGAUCAUGUUCCCUUAAAACUCAGACUUCAACACAUCAGUUAAAUUUGUACUUUAGUUGUGGGUGUUAGAGUUUUUGUGUCAUGACUCAGUGUGGUUCACAUUCCUAGUGAGAAGUGGAAUUCUCGGGUGCCAA | 0.337 |
| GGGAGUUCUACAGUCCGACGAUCCCCAGCUUCCAUCUCAGGAGACCAGAACUCAUGGAAAAAUUAGGCACUUUUGGCUAAAAGUGCGAAUGGAACAUUUUUAGUUGUAGUCUGGGGAAGAAAAGUUAAUGAGGUGGAAUUCUCGGGUGCCAA | 1.13 |
| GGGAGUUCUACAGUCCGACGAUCAGGACCCAGCCCUCGCCUCUGCGAGAAUGAACAUAUUUGAUAGAUUUUUCUUAACAAGUUAGAAAAUUCAGCUCCUUUCUGUCCUGGAGCUAGCAAAGACUUGUGUGAUGUGGAAUUCUCGGGUGCCAA | 0.531 |
| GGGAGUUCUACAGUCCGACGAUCAGAGAACCUCAUCCAUGCCUGGAGAACAUCUAGAAAACCUUCAGCCAGCCUCCAGUGCUGUCGAGAGACCACCUUCCCCCGACCCGGAGGCACUUCCUUGGGGUCUUUCUUGGAAUUCUCGGGUGCCAA | 0.209 |
| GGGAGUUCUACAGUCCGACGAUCACCUGGCAAACUUCUCUAGCAUGUGCUGAAUGGGAGUGUCAGCUGCCAGGGAGCCUUAGGACCCCAGGGCCCCCAGCUCCCACUGCCUAGGGAGCGAAGGAAGACGCUGCUGGAAUUCUCGGGUGCCAA | 16.9 |

Series 3
Target: Prothrombin, mature alpha-thrombin (F2, Homo sapiens, UniProt P00734)
Technique: aptamer microarray, sandwich
Form: DNA with 2'F-ANA
Matrix: in vitro
Tested at: 200 nM
Notes: whole 15-mer aptamer, many near background
Added: Cy3 exosite-II aptamer, 400 nM
Reading: higher = stronger binding
Sequence: GGTTGGTGTGGTTGG
| Modification | mean fluorescence intensity [a.u.] |
| --- | --- |
| 2'F-ANA at 2 4 6 8 10 12 13 14 | 56.2 |
| 2'F-ANA at 4 5 6 9 11 12 14 | 52.4 |
| 2'F-ANA at 1 3 7 8 11 | 335 |
| 2'F-ANA at 2 3 4 5 6 8 9 11 12 | 171 |
| 2'F-ANA at 6 11 13 15 | 364 |
| 2'F-ANA at 3 8 10 11 13 14 | 414 |
| 2'F-ANA at 1 2 3 6 7 8 9 13 15 | 142 |
| 2'F-ANA at 1 4 5 6 9 12 13 | 72.7 |
| 2'F-ANA at 1 3 5 6 7 10 11 13 14 | 46.7 |
| 2'F-ANA at 2 4 5 8 9 12 14 | 53.2 |
| 2'F-ANA at 3 5 6 8 9 10 11 14 | 56.1 |
| 2'F-ANA at 1 3 6 9 13 14 | 72.8 |
| 2'F-ANA at 2 3 5 6 8 9 10 11 15 | 139 |
| 2'F-ANA at 1 2 4 5 6 10 12 15 | 52.1 |
| 2'F-ANA at 3 5 6 7 10 11 12 | 182 |
| 2'F-ANA at 1 4 8 11 12 13 14 15 | 61.8 |
| 2'F-ANA at 3 7 8 10 13 15 | 570 |
| 2'F-ANA at 2 3 4 5 6 7 9 10 11 12 15 | 59.9 |

Series 4
Target: Interferon regulatory factor 5, full length, phosphomimetic (IRF5, Homo sapiens, UniProt Q13568-2, residues 1-514, S451D/S453D/S456D/S462D)
Technique: protein-binding microarray
Form: double-stranded DNA, one strand shown
Matrix: in vitro
Tested at: 940 nM top
Notes: 60-bp whole probe
Added: salmon DNA 0.4 mg/ml
Reference: random background probes
Reading: higher = stronger binding
Constant ends, left off below: GCCTAGCAC … GTCTTGATTCGCTTGACGCTGCTG
| Sequence | fitted relative affinity [z-score] |
| --- | --- |
| TTAGGTCTCGGTATCGGTGAGTGCTAG | 5.85 |
| TCATATATGTGTATATAACTGTGCTAG | -0.124 |
| GACGATTTCGGACTGGAGACGTGCTAG | 0.0238 |
| GACGCACTGGGTCTCGGGACGTGCTAG | -0.194 |
| GACGGACTCCTTATCCTGACGTGCTAG | 0.17 |
| TTAGAACTGAGCTTCGATTAGTGCTAG | -0.551 |
| TTACGTATCCTTCTCCTTTAGTGCTAG | 1.48 |
| CTCCAACAAGGCTATCCCTCGTGCTAG | -0.253 |
| ACTGAAATCACCCTTGGAAGTGTGCTA | 0.734 |
| TTAGAAATCAGTTTCGATTAGTGCTAG | 8.58 |
| ACCGTTGTAGTTTTCATTATGTGCTAG | 1.2 |
| GACGATATCAAACTGGAGACGTGCTAG | -0.407 |
| TTAGAACTGGGGTTTCGATTAGTGCTA | 5.37 |
| TCATGACTCTTTCTGTCACTGTGCTAG | 0.911 |
| TGAGTTTTCCTTCATGTGCCGTGCTAG | 1.11 |
| GACGGGTTCGGTTCCGGGACGTGCTAG | 0.126 |
| GAGGATCTCAGTCTCGAGACGTGCTAG | 1.04 |
| TGAGGTTCCCTTTTCCTTTAGTGCTAG | 0.809 |
| TTAGATATCAGAATCGATTAGTGCTAG | 0.199 |
| GACGAACTGAGACCGGAGACGTGCTAG | -0.675 |
| CAAGTGGAGCCCAGGCCAGAGTGCTAG | -0.774 |
| TCAGAGATTTTTCTCAAACTGTGCTAG | -0.32 |
| GACGGACTGCTTTCCCTGACGTGCTAG | -0.216 |
| GACTATTTCAGTCTCGAGACGTGCTAG | 1.93 |
| TTAGAACTGCTTATCCTTTAGTGCTAG | 0.43 |
